Results gathered from unrelated publications.
Compare with care: the assays were run in different laboratories. Values joined by “and” are separate records of one study, mostly repeats; a detail may differ. Numbers after ± are the reported error.
CDK7: Cyclin-dependent kinase 7 (CDK7, Homo sapiens, UniProt P50613)
UniProt P50613, sequence (whole entry, looked up): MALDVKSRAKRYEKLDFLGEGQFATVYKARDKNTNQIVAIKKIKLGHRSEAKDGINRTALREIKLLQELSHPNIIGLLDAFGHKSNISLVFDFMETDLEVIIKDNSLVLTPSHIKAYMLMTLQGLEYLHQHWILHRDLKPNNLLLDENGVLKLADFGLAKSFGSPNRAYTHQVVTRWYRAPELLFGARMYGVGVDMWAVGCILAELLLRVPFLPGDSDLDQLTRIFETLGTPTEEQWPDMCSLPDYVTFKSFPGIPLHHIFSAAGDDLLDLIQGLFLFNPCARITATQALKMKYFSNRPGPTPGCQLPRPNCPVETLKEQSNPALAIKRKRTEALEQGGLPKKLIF
Gria2: Glutamate receptor 2 (Gria2, Rattus norvegicus, UniProt P19491)
UniProt P19491, sequence (whole entry, looked up): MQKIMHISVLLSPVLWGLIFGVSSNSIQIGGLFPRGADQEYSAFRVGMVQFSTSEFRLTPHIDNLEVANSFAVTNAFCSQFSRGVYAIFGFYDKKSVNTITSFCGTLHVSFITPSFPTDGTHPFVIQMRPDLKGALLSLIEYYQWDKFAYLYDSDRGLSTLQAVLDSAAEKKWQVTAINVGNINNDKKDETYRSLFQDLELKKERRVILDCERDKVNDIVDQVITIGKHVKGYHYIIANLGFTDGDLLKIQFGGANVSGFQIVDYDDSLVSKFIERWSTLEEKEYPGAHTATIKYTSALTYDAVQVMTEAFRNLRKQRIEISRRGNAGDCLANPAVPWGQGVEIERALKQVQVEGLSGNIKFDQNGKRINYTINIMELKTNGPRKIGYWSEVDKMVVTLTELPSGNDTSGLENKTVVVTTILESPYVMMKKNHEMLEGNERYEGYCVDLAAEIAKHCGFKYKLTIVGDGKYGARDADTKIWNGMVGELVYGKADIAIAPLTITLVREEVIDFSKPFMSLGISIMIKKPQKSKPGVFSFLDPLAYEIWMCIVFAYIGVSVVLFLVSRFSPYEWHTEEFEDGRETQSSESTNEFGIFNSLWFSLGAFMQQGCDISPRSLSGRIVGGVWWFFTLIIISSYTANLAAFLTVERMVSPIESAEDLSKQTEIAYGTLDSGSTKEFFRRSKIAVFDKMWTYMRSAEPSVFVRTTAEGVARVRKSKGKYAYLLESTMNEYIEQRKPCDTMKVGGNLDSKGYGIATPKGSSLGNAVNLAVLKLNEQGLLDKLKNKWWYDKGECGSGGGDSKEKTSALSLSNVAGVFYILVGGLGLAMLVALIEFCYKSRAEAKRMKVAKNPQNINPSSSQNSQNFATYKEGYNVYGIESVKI
CDK4: Cyclin-dependent kinase 4 (CDK4, Homo sapiens, UniProt P11802)
UniProt P11802, sequence (whole entry, looked up): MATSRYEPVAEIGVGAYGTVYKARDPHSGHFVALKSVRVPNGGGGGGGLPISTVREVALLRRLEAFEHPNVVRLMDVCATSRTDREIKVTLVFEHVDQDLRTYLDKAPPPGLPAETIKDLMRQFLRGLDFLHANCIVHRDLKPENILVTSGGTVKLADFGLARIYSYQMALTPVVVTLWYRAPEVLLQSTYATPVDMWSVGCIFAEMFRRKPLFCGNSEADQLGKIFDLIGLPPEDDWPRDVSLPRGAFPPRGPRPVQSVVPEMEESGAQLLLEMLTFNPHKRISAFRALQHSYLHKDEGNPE
HDAC11: Histone deacetylase 11 (HDAC11, Homo sapiens, UniProt Q96DB2)
UniProt Q96DB2, sequence (whole entry, looked up): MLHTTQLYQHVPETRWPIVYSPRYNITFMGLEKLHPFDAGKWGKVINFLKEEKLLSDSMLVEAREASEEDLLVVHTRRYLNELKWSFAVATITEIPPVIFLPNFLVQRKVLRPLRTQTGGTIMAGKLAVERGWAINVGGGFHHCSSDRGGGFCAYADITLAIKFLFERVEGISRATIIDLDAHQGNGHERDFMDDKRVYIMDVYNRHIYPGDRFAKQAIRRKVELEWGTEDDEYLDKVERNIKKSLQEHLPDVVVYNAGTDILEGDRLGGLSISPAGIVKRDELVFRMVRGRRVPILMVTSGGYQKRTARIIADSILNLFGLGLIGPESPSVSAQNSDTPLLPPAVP
DGKA: Diacylglycerol kinase alpha (DGKA, Homo sapiens, UniProt P23743)
VKORC1: Vitamin K epoxide reductase complex subunit 1 (VKORC1, Homo sapiens, UniProt Q9BQB6)
UniProt Q9BQB6, sequence (whole entry, looked up): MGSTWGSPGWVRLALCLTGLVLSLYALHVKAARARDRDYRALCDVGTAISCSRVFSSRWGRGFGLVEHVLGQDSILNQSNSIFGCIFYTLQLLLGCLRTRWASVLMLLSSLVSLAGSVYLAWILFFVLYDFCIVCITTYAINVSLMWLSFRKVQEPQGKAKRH
DDR2: Discoidin domain-containing receptor 2 (DDR2, Homo sapiens, UniProt Q16832)
UniProt Q16832, sequence (whole entry, looked up): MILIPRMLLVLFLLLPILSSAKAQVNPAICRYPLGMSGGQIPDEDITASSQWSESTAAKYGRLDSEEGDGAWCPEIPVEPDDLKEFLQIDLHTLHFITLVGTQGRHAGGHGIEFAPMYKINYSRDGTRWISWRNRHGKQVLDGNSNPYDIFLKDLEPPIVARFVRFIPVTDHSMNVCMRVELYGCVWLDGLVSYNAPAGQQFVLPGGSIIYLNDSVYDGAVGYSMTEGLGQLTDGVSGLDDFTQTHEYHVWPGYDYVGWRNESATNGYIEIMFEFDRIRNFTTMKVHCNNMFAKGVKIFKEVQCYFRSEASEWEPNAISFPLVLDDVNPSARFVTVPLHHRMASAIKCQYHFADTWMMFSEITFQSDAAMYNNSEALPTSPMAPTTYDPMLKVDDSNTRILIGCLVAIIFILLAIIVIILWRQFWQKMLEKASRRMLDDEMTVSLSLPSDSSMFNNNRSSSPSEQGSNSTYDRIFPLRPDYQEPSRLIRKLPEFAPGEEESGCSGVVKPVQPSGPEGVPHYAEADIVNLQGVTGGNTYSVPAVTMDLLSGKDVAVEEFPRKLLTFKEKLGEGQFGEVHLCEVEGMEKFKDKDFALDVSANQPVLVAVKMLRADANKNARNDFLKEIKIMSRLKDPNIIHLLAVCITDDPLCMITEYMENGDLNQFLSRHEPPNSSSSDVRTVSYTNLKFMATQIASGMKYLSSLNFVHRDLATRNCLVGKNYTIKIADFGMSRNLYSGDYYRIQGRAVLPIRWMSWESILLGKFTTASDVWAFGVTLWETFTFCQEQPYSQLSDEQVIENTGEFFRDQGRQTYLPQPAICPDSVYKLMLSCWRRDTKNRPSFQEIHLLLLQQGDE
ERBB2: Receptor tyrosine-protein kinase erbB-2 (ERBB2, Homo sapiens, UniProt P04626)
DYRK1A: Dual specificity tyrosine-phosphorylation-regulated kinase 1A (DYRK1A, Homo sapiens, UniProt Q13627)
UniProt Q96GW9, sequence (whole entry, looked up): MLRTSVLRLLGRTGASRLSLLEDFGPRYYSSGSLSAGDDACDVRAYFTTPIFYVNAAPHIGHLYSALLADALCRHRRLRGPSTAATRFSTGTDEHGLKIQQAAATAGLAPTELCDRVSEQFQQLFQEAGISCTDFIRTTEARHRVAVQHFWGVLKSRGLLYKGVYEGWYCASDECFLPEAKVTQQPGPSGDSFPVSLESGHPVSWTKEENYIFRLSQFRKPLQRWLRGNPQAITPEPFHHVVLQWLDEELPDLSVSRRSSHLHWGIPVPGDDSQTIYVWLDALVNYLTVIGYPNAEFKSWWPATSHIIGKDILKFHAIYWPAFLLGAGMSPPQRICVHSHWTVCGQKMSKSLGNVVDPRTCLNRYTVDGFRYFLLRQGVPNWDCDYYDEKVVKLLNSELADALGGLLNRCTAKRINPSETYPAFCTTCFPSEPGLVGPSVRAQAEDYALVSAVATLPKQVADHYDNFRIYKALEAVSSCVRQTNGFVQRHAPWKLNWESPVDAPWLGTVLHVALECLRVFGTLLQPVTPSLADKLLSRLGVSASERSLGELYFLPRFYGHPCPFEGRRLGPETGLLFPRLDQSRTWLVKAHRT
UniProt P33535, sequence (whole entry, looked up): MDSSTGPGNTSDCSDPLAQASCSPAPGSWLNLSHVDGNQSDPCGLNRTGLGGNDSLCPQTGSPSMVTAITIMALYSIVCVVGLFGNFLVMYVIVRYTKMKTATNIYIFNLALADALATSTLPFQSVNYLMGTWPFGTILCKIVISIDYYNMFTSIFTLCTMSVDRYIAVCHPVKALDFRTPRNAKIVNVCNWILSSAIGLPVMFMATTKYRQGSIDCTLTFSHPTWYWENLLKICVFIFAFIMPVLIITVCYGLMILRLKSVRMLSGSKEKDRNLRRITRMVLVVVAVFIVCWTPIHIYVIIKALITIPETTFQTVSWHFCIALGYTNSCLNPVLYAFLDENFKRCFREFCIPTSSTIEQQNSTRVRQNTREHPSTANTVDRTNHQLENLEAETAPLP
UniProt Q13148, sequence (102-269, looked up): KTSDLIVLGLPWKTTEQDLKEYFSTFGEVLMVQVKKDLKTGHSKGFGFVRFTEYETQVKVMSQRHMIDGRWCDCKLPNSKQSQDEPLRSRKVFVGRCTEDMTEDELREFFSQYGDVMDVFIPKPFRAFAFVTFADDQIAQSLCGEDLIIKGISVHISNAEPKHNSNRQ
UniProt Q96L34, sequence (whole entry, looked up): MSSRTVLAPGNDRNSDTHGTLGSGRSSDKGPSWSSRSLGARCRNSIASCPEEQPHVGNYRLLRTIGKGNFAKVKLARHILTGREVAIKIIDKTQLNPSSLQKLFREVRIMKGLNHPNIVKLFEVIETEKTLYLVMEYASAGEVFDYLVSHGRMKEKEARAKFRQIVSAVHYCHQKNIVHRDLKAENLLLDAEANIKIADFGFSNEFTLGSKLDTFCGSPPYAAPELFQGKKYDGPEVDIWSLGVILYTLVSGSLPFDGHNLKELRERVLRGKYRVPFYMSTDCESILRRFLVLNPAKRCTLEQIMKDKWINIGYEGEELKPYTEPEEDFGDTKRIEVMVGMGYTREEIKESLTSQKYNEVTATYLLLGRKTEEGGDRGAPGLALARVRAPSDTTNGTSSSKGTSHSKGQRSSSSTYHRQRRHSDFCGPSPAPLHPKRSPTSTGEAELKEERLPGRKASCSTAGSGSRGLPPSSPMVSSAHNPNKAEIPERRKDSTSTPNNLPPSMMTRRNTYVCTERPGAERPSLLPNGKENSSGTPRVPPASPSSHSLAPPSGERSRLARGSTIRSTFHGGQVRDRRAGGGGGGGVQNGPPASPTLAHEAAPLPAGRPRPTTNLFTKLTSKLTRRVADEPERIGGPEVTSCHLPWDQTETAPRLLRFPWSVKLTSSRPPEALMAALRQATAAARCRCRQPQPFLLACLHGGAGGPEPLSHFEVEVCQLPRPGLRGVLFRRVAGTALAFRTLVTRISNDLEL

`Oc1cc(NCCCNCc2cc(Cl)cc(Cl)c2)nc2ccccc12` gave an IC50 of < 13 nM (Methionine--tRNA ligase, mitochondrial (MARS2, Homo sapiens, UniProt Q96GW9); enzyme activity, inhibitor).
The IC50 of `Cc1nn(-c2cccc(N)c2)c(=O)c2cnc(Nc3ccc(N4CCNCC4)cc3)nc12` is reported as > 10000 nM (MAP/microtubule affinity-regulating kinase 4 (MARK4, Homo sapiens, UniProt Q96L34); enzyme activity, inhibitor).
`Cc1cc(C)c(S(=O)(=O)N(CC(=O)O)c2ccc(Nc3ccnc(N4CCCC4)n3)cc2)c(C)c1` gave an IC50 of > 100000 nM (CDK7; enzyme activity, inhibitor).
The IC50 of `O=C(O)Cc1cc2c(cc1C(=O)c1ccccc1Cl)OCO2` is reported as 4070 nM (Gria2; glutamate-evoked current, inhibitor, whole-cell patch clamp; HEK293T, homomeric receptor).
`Cc1nc2c(F)cc(-c3nc(Nc4ccc(NC(=O)CCCCCC(=O)NO)cc4)ncc3F)cc2n1C(C)C` gave an IC50 of 1.2 nM (CDK4).
With `CC(C)c1ccc(/C=C/C(=O)c2ccc(Cl)cc2)cc1` the IC50 was 5680 nM (Amine oxidase [flavin-containing] A (MAOA, Homo sapiens, UniProt P21397); enzyme activity, inhibitor).
`CCCCCCC(=O)Nc1ccc(Nc2ncc(F)c(-c3cc(F)c4nc(C)n(C(C)C)c4c3)n2)cc1` has an IC50 of 5.9 nM (CDK4).
For `Sc1ncnc2nc[nH]c12`, the IC50 was 41700 ± 9600 nM (TAR DNA-binding protein 43, residues 102-269 (TARDBP, Homo sapiens, UniProt Q13148); protein-RNA binding, inhibitor, fluorescence polarization; 40 nM protein, together with: 10 nM RNA).
With `COc1ccc(C2=[N+]3C(=C(CCCCc4cn(CC(=O)N5CCc6nc(NC(=O)[C@H]7CCN(C#N)C7)sc6C5)nn4)c4ccc(-c5ccc(OC)cc5)n4[B-]3(F)F)C=C2)cc1` the IC50 was 3600 nM (Ubiquitin carboxyl-terminal hydrolase isozyme L1 (UCHL1, Homo sapiens, UniProt P09936); enzyme activity, inhibitor, fluorescence; with preincubation).
For `CCCCCCN(O)C(=O)CCCCC[C@@H]1NC(=O)[C@H]([C@@H](C)CC)NC(=O)[C@H](Cc2ccccc2C(F)(F)F)NC(=O)CCSCc2cccc(n2)CSCCCNC1=O`, the IC50 was 73 nM (HDAC11; enzyme activity, inhibitor, fluorescence).
The IC50 of `O=C(NO)c1coc(-c2ccc(Br)cc2)n1` is reported as 399 ± 43 nM (Polyamine deacetylase HDAC10 (hdac10, Danio rerio, UniProt F1QCV2)).
For `C[C@@H]1CN(c2cc(=O)n(C)c3ccc(C#N)nc23)[C@@H](C)CN1Cc1ccc(S(=O)(=O)n2cnc(C3CC3)n2)cc1`, the IC50 was 12 nM and ~12 nM (DGKA; inhibitor, ADP-Glo; together with: DAG micelles).
The IC50 of `CCCCN(CCc1ccccc1)CCc1cccc(O)c1` is reported as 1100 nM (Mu-type opioid receptor (Oprm1, Rattus norvegicus, UniProt P33535); β-arrestin recruitment, antagonist).
With `C[C@H](Cn1nnc2ccccc21)NC(=O)Cn1cnc2ccccc2c1=O` the IC50 was 9000 nM (VKORC1; carboxylation, inhibitor, cell-based).
The IC50 of `COC(=O)CCCCCCNC(=O)c1ccc(Nc2ncc(F)c(-c3cc(F)c4nc(C)n(C(C)C)c4c3)n2)cc1` is reported as 2.8 nM (CDK4).
The IC50 of `Nc1n[nH]c2cc(C(=O)N3CCC4(CC3)C(=O)N(CC(=O)NCC(F)(F)F)CN4c3ccccc3)ccc12` is reported as 26000 nM (DDR2; ligand displacement).
`O=C(O)CCNC(=S)NCCCC[C@H](NS(=O)(=O)c1cccc(F)c1)C(=O)N[C@@H](Cc1c[nH]c2ccccc12)C(=O)NC1CCC1` gave an IC50 of 150 ± 10 nM (NAD-dependent protein deacylase sirtuin-5, mitochondrial (SIRT5, Homo sapiens, UniProt Q9NXA8); inhibitor, fluorogenic; pre-incubation 24 h, together with: NAD+ 500 µM).
`Cc1ccc(C(F)(F)CNC(=O)c2cc(Cl)nnc2Oc2cccc(C(F)(F)F)c2)c(C)c1` gave an IC50 of 14 ± 2 nM (serine palmitoyltransferase (Botrytis cinerea, UniProt A0A384JAG3+A0A384JQT2)).
The IC50 of `O=C(Nc1c[nH]nc1C(=O)NC1CCNCC1)c1cc(F)cc(F)c1` is reported as 3.5 nM (Cyclin-dependent kinase-like 5 (CDKL5, Homo sapiens, UniProt O76039); target engagement in cells, BRET).
`O=C(CN1CN(c2ccc(F)cc2)C2(CCN(C(=O)c3cnc4[nH]ncc4c3)CC2)C1=O)NCC(F)(F)F` gave an IC50 of 86600 nM (DDR2; ligand displacement).
`C=C(F)C(=O)Nc1ccc2c(-c3ccccc3CNc3nc(NC[C@H]4CCNC[C@@H]4O)nc4c(C(C)C)cnn34)nccc2c1` gave an IC50 of 10 nM (CDK7; kinase activity, inhibitor, radiometric).
`O=C(O)Cc1cc2c(cc1C(=O)c1cccc(Cl)c1)OCO2` gave an IC50 of 3910 nM (Gria2; ion current, patch clamp).
The IC50 of `C=CC(=O)Nc1cc(-c2nn(C3CCN(CCNC(=O)[C@H](C)CCC45CC6CC(CC(C6)C4)C5)CC3)c3ncnc(N)c23)ccc1Oc1ccccc1` is reported as > 10000 nM (ERBB2; enzyme activity, inhibitor, FRET).
`COc1c(Cl)cccc1Nc1c(-c2ccncc2C#C[C@@]2(C)CCCN2C(=O)/C=C/CN(C)C)[nH]c2c1C(=O)NCC2` gave an IC50 of 1.1 nM (ERBB2).
With `CCCCCCN(O)C(=O)CCCCC[C@@H]1NC(=O)CCSCc2cccc(n2)CSCCNC(=O)[C@H](CCc2ccccc2)NC(=O)[C@H](CC)NC1=O` the IC50 was 500 nM (HDAC11; enzyme activity, inhibitor, fluorescence).
`O=C1CSC(c2cccc(Br)c2)N1c1cc(Cl)ccc1O` (centres unmarked) has an IC50 of 11000 nM (ACTR3/Actin-related protein 2 (Homo sapiens, UniProt P61158+P61160); actin polymerization, pyrenyl-actin).
`CCn1c(=O)c(=O)n(CC)c2ccccc21` gave an IC50 of 550 nM (DYRK1A; enzyme activity, inhibitor, ADP detection).
For `Cc1nc2c(F)cc(-c3nc(Nc4ccc(CNC(=O)CCCCCCC(=O)NO)cc4)ncc3F)cc2n1C(C)C`, the IC50 was 6800 nM (HDAC11; enzyme activity, inhibitor).
`CC1CCCN(C(=O)Cn2ncc3cccn3c2=O)C1` (centres unmarked) gave an IC50 of 22500 nM (VKORC1; carboxylation, inhibitor, ELISA; HEK293 stably expressing; 24 h, together with: vitamin K epoxide 5 µM).
`CN[C@H]1CCN(C(=O)c2c(C)cc(C(F)(F)F)nc2-c2ccnc3cc(CN4C(=O)C5C(C4=O)C5(C)C)sc23)C1` (some centres unmarked) has an IC50 of 22 nM (Ubiquitin carboxyl-terminal hydrolase 7 (USP7, Homo sapiens, UniProt Q93009); enzyme activity, inhibitor).
`CCCC[C@H](NC(=O)CNC(=O)CNC(C)=O)C(=O)N[C@@H](CS)C(=O)N[C@@H](CS)C(=O)N[C@@H](CCC(=O)O)C(=O)N[C@@H](Cc1c[nH]cn1)C(=O)N[C@H](Cc1ccccc1)C(=O)N[C@@H](CCCNC(=N)N)C(=O)N[C@@H](Cc1c[nH]c2ccccc12)C(=O)N[C@@H](CS)C(=O)N[C@@H](CCCNC(=N)N)C(=O)N1CCC[C@H]1C(N)=O` has an IC50 of 2 nM (Melanocyte-stimulating hormone receptor (Mc1r, Mus musculus, UniProt Q01727); ligand displacement, radioligand).
`CC(=O)OC1CCC2(C)C(CCC3(C)C2CC=C2C4C(C)C(C)CCC4(C(=O)O)CCC23C)C1(C)C` (centres unmarked) gave an IC50 of > 100000 nM (UDP-glucuronosyltransferase 1A7 (UGT1A7, Homo sapiens, UniProt Q9HAW7); enzyme activity, inhibitor).
`Cc1nc2c(F)cc(-c3nc(Nc4ccc(C(=O)NCCCCCC(=O)NO)cc4)ncc3F)cc2n1C(C)C` has an IC50 of 1.9 nM (CDK4).
The IC50 of `N=C(N)NCCC[C@@H]1NC(=O)[C@H](Cc2csc3ccccc23)NC(=O)[C@@H](Cc2ccccc2)NC(=O)[C@H](Cc2ccccc2)NC(=O)[C@H](CCC(=O)N[C@@H](CCCCN)C(N)=O)NC(=O)[C@@H](CCCNC(=N)N)NC(=O)[C@H](CCCNC(=N)N)NC(=O)[C@@H](CCCNC(=N)N)NC1=O` is reported as 9500 nM (N-alpha-acetyltransferase 40 (NAA40, Homo sapiens, UniProt Q86UY6); enzyme activity, inhibitor, fluorescence).
For `C=CC(=O)N1Cc2nc(-c3cc(-c4cc(Cl)cnc4Cl)c(F)cc3F)n(-c3ccncn3)c2C1`, the IC50 was 75 nM (ERBB2; HER2 phosphorylation, item: pHER2 Y1221/1222; BT-474 (HER2 wild type); 2 h).
`Nc1ncc2c(n1)-c1c([nH]c3ccc(C4=CCOCC4)cc13)CCC2` gave an IC50 of 520 nM (DYRK1A; enzyme activity, inhibitor, radiometric).
`Cc1c(C(=O)N[C@H](C(=O)Nc2cccc(C(N)=O)c2)c2ccc(OCc3ccccc3)cc2)cnn1-c1ccccc1` has an IC50 of 16000 nM (Genome polyprotein, NS2B-NS3 protease (dengue virus type 2, UniProt P29990); enzyme activity; together with: AMC substrate 50 µM).
For `CC(=O)N1CCC2(CC1)C(=O)N(CC(=O)Nc1ccccc1)CN2c1ccccc1`, the IC50 was > 167000 nM (DDR2; ligand displacement).
With `Cc1c(OS(=O)(=O)Oc2ccc(C(C)C)cc2)cccc1C(=O)NO` the IC50 was 321 nM (HDAC11).
`Cc1nc2c(F)cc(-c3nc(Nc4ccc(CNC(=O)CCCCCC(=O)NO)cc4)ncc3F)cc2n1C(C)C` gave an IC50 of 1.1 nM (CDK4).
With `CC(C)C[C@H](NC(=O)[C@@H](CCCCNC(=O)[C@@H](Cc1ccccc1)NC(=O)CCCCCNC(=O)CN1CCN(CC(=O)O)CCN(CC(=O)O)CCN(CC(=O)O)CC1)NC(=O)[C@H](Cc1ccc(O)cc1)NC(=O)[C@H](CO)NC(=O)[C@H](Cc1c[nH]c2ccccc12)NC(=O)[C@H](Cc1c[nH]cn1)NC(=O)[C@@H]1CCC(=O)N1)C(=O)N[C@@H](CCCNC(=N)N)C(=O)N1CCC[C@H]1C(=O)NCC(N)=O` the IC50 was 7.6 nM (Gonadotropin-releasing hormone receptor (GNRHR, Homo sapiens, UniProt P30968); ligand displacement, radioligand; pH 7.4, cell membranes).
`CC[C@H]1CN(C(c2cccc(C(F)(F)F)c2)c2nc(C(F)(F)F)nn2C)[C@H](CC)CN1c1nc(=O)n(C)c2ccc(C#N)nc12` (some centres unmarked) has an IC50 of 87 nM (DGKA; lipid kinase activity, inhibitor, ADP-Glo).
`Cc1nc2c(F)cc(-c3nc(Nc4ccc(CC(=O)NCCCCCCCC(=O)NO)cc4)ncc3F)cc2n1C(C)C` gave an IC50 of 1.7 nM (CDK4).
For `Cc1nc(O)c2nnn(C[C@@H]3CCCN(C(=O)c4ccc(F)cc4F)C3)c2n1`, the IC50 was > 100000 nM (VKORC1; carboxylation, inhibitor, ELISA; HEK293 stably expressing; 24 h, together with: vitamin K epoxide 5 µM).

For quick reference, copied from above:
`Oc1cc(NCCCNCc2cc(Cl)cc(Cl)c2)nc2ccccc12` gave an IC50 of < 13 nM (Methionine--tRNA ligase, mitochondrial (MARS2, Homo sapiens, UniProt Q96GW9); enzyme activity, inhibitor).
The IC50 of `Cc1nn(-c2cccc(N)c2)c(=O)c2cnc(Nc3ccc(N4CCNCC4)cc3)nc12` is reported as > 10000 nM (MAP/microtubule affinity-regulating kinase 4 (MARK4, Homo sapiens, UniProt Q96L34); enzyme activity, inhibitor).
`Cc1cc(C)c(S(=O)(=O)N(CC(=O)O)c2ccc(Nc3ccnc(N4CCCC4)n3)cc2)c(C)c1` gave an IC50 of > 100000 nM (CDK7; enzyme activity, inhibitor).
